Assay results from different studies.
Each line is one published result; not all experiments were run side by side. ± gives the spread as reported.
Sigmar1: Sigma non-opioid intracellular receptor 1 (Sigmar1, Rattus norvegicus, UniProt Q9R0C9)

`COC(=O)C1C(OC(c2ccc(Cl)cc2)c2ccc(Cl)cc2)CC2CCC1N2C` (single isomer, unassigned) has a Ki of 0.234 µM (Sigma-2 receptor/TMEM97 (Cavia porcellus, UniProt H0V073); radioligand binding; racemate, with: [3H]DTG, (+)-pentazocine mask).
With `CCOC(=O)[C@](CC)(CCCSCCOCCOCCNc1ccc([N+](=O)[O-])c2nonc12)NC(=O)c1ccc(C2CC2)c(Cc2ccc(F)cc2)n1` the Ki was 0.691 µM (Cnr1 (Mus musculus, UniProt P47746); ligand displacement, radioligand; cell membranes).
`Cc1cc(O)cc(C)c1CC(N)C(=O)NC1CCNc2c(C(=O)Nc3ccccc3)cc(Cc3ccccc3)cc21` (stereo not shown) has a Ki of 0.029 µM (OPRK1 (Homo sapiens, UniProt P41145); ligand displacement, radioligand; cell membranes).
`Cc1onc(-c2ccccc2Cl)c1C(=O)NCC(=O)O` gave a Ki of less than 10000 µM (Beta-lactamase (ampC, Escherichia coli K-12, UniProt P00811)).
With `CCC(=O)c1ccc2c(c1)sc(=O)n2CCCN1CCCCCC1` the Ki was 0.0037 ± 0.0003 µM (Sigmar1; binding, radioligand binding; rat liver membranes; with: [3H](+)-pentazocine 5 nM).
The Ki of `CC(=O)N[C@H](CCCNC(=N)N)C(=O)N[C@@H](Cc1ccc(O)cc1)C(=O)N[C@@H](CCCNC(=N)NC(=O)NCCCCN)C(=O)N[C@@H](CC(C)C)C(=O)N[C@@H](CCCNC(=N)N)C(=O)N[C@@H](Cc1ccc(O)cc1)C(N)=O` is reported as greater than 5 µM (NPY5R (Homo sapiens, UniProt Q15761); ligand displacement, radioligand).
With `CC(C)[C@H](NC(=O)c1ccc(CNc2nc3c(c(=O)[nH]2)CCC3)cc1)C(=O)NC1CNC1` the Ki was 0.0637 ± 0.0015 µM (Collagenase 3 (MMP13, Homo sapiens, UniProt P45452); enzyme activity, inhibitor; TFA salt stored 3 months in DMSO, with: fTHP-15(FAM) substrate).
With `CC(Cc1ccccc1Sc1ccccc1)N(C)C` (stereo not shown) the Ki was 0.78 µM (SLC6A3 (Homo sapiens, UniProt Q01959); ligand displacement in cells, radioligand).
With `CCC(=O)c1ccc2c(c1)sc(=O)n2CCCCN1CCCCCC1` the Ki was 0.0103 ± 0.0009 µM (Sigmar1; binding, radioligand binding; rat liver membranes; with: [3H](+)-pentazocine 5 nM).
`CC1(CCN2CCc3ccccc3C2)Cc2cc(Cl)ccc2C1=O` (single isomer, unassigned) gave a Ki of 0.0807 µM (HTR7 (Homo sapiens, UniProt P34969); binding, radioligand binding).

Repeated from above:
`CC1(CCN2CCc3ccccc3C2)Cc2cc(Cl)ccc2C1=O` (single isomer, unassigned) gave a Ki of 0.0807 µM (HTR7 (Homo sapiens, UniProt P34969); binding, radioligand binding).
